Measurements of several laboratories.
Parts stem from different laboratories: compare values within a part only. Values joined by “and” are separate records of one study, mostly repeats; a detail may differ.
UniProt P62344, sequence (whole entry, looked up): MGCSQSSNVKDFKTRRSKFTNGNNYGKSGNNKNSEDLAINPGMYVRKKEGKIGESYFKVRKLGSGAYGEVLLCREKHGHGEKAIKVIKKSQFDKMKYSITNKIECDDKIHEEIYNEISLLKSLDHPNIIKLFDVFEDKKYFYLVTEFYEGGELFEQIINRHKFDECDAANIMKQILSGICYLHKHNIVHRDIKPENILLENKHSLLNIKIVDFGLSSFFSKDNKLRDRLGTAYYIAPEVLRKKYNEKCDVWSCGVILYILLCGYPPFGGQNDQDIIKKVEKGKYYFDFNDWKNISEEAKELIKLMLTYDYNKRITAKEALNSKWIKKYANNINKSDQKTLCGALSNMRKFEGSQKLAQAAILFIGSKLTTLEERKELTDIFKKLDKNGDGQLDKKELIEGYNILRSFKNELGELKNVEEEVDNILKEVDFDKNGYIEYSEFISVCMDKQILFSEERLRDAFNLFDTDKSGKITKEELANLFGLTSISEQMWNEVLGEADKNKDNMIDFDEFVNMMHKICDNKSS
UniProt Q15349, sequence (whole entry, looked up): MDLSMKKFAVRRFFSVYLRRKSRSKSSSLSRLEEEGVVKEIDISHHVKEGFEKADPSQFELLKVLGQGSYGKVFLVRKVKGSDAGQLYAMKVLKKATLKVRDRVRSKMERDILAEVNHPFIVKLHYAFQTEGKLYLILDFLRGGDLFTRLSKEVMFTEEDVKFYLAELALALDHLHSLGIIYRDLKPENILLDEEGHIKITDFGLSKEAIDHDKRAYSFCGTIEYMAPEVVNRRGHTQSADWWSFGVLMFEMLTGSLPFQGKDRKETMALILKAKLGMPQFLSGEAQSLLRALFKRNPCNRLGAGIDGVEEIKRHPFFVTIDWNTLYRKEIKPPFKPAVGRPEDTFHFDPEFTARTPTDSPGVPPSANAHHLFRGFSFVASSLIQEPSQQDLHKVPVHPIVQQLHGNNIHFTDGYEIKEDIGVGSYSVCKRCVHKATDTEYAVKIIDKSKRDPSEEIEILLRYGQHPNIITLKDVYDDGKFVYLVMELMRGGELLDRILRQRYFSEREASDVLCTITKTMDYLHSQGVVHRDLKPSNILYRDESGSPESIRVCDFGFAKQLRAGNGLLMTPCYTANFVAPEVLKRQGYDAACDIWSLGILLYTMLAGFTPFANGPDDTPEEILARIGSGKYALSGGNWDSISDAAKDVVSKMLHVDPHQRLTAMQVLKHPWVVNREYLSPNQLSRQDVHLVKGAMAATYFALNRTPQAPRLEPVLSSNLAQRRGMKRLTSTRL
UniProt Q9UL54, sequence (whole entry, looked up): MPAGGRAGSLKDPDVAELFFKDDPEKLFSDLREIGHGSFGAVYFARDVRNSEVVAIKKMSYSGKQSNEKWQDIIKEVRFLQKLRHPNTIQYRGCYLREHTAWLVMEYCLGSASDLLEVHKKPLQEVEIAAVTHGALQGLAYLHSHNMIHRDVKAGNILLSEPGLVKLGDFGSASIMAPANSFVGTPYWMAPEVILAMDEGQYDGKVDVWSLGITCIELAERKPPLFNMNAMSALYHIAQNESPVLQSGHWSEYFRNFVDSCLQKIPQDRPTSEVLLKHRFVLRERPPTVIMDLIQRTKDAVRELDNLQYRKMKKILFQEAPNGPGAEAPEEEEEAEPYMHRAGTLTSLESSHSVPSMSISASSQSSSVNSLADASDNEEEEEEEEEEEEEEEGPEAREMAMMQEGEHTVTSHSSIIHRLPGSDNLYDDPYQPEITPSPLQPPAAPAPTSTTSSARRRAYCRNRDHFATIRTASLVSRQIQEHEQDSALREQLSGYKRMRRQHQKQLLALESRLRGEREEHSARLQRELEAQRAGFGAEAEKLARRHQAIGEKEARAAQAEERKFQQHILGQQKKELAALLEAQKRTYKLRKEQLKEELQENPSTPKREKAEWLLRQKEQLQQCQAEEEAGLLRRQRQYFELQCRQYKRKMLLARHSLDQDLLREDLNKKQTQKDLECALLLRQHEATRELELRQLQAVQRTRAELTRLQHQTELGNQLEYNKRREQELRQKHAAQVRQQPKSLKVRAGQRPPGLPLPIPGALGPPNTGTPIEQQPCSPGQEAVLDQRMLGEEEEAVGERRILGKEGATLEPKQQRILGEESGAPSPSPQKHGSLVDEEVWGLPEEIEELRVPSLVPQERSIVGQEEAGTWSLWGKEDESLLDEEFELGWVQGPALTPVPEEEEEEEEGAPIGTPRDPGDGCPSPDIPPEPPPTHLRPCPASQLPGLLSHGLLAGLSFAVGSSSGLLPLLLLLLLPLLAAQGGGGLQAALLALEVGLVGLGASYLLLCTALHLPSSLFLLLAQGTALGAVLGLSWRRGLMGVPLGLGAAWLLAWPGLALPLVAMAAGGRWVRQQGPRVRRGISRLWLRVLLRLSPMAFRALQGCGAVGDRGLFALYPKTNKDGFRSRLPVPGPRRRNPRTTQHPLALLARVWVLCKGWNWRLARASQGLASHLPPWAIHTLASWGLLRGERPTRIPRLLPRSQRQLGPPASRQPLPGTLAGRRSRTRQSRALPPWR
UniProt Q9UHD2, sequence (whole entry, looked up): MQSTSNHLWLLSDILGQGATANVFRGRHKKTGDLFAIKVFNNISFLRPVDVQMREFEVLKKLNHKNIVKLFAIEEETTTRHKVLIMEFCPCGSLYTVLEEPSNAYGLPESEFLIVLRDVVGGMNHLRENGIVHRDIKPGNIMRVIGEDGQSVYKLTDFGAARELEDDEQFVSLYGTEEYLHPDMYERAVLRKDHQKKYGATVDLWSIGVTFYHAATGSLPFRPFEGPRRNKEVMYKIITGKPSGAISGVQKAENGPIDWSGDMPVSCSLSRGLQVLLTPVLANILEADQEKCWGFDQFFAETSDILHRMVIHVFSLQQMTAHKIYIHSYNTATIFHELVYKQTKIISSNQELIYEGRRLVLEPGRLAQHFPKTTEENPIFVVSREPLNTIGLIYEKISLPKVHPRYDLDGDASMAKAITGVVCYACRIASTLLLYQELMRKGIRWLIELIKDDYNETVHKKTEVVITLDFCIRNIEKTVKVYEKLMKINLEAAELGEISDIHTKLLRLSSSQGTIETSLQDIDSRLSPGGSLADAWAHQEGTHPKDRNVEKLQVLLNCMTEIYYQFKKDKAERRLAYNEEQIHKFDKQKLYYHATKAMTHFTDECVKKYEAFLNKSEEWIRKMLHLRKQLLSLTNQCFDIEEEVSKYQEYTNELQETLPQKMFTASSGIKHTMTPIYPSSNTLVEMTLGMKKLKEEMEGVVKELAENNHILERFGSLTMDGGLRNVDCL
UniProt Q8WTQ7, sequence (whole entry, looked up): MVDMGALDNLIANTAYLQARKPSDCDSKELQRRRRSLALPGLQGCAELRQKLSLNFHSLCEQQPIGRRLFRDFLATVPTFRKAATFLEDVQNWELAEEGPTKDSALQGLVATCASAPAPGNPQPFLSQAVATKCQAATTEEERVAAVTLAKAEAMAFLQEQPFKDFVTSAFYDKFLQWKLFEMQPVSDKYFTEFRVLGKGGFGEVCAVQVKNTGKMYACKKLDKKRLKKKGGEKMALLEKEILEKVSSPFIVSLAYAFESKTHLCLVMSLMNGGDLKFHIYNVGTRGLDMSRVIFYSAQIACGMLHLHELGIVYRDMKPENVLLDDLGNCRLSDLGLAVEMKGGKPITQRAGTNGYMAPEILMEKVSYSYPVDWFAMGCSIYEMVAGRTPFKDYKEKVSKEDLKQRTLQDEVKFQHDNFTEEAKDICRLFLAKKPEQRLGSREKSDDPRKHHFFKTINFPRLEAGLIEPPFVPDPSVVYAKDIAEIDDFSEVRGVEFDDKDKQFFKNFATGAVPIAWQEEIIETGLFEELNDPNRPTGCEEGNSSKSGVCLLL
UniProt P06239, sequence (whole entry, looked up): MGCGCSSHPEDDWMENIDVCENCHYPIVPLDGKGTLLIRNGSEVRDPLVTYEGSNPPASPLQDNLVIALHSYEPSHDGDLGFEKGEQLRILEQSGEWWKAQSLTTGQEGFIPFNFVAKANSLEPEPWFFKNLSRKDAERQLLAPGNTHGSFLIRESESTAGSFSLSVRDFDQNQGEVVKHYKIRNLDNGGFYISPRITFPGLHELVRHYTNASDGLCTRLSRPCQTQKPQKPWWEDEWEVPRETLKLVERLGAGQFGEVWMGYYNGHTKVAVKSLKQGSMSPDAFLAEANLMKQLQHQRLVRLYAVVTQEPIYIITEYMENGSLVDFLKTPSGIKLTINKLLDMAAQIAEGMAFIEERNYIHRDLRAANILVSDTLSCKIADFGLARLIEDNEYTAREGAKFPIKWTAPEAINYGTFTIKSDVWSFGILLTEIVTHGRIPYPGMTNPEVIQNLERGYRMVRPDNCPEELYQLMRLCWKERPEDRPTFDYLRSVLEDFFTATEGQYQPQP

Study 1
Target: UBE2W UBC core domain (UniProt Q96B02)
Technique: yeast two-hybrid
Medium: yeast
Setting: mostly zero background
Baseline: not given
Direction: higher = stronger interaction
B1: TRIM22 RING domain (UniProt Q8IYM9); chain KEVKMSPQEGQKRDVCEHHGKKLQIFCKEDGKVICWVCELSQEHQGHQTFRINEVVKECQEK
B2: PRKN RING domain (UniProt O60260); chain LIATNSRNITCITCTDVRSPVLVFQCNSRHVICLDCFHLYCVTRLNDRQFVHDPQLGYSLPCVAGCPNSLIKELHH
B3: RNF135 RING domain (UniProt Q8IUD6); chain PVWLAEDDLGCIICQGLLDWPATLPCGHSFCRHCLEALWGARDARRWACPTCRQGAAQQPHLR
B4: TRIM48 RING domain (UniProt Q8IWZ4); chain ISQVFQRELTCPICMNYFIDPVTIDCGHSFCRPCFYLNWQDIPILTQCFECIKTIQQRNLKT
Residues (chain): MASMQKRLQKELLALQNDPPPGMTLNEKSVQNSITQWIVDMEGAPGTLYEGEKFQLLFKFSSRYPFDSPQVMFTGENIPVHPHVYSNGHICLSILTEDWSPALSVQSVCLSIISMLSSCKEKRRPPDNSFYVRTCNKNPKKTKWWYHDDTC
Molecule	lacZ reporter activity
ALDRLEKLLRCSRCTNILREPVCLGGCEHIFCSNCVSDCIGTGCPVCYTPAWIQDLKI (BARD1 RING domain (UniProt Q99728))	0
MDDQGCPRCKTTKYRNPSLKLMVNVCGHTLCESCVDLLFVRGAGNCPECGTPLRKSNFRV (MNAT1 RING domain (UniProt P51948))	0
KEQLEKHNDICAICYQDMKSAVITPCSHFFHAGCLKKWLYVQETCPLCHCHLKNSSQLP (RNF145 RING domain (UniProt Q96MT1))	0
B1 (TRIM22 RING domain)	0
QLRRLQEERTCKVCLDRAVSIVFVPCGHLVCAECAPGLQLCPICRAPVRSRVRTF (BIRC7 RING domain (UniProt Q96CA5))	0
B2 (PRKN RING domain)	0
B3 (RNF135 RING domain)	0
B4 (TRIM48 RING domain)	0

Study 2
Target: Calcium/calmodulin-dependent protein kinase type II subunit alpha (CAMK2A, Homo sapiens, UniProt Q9UQM7)
UniProt Q9UQM7, sequence (whole entry, looked up): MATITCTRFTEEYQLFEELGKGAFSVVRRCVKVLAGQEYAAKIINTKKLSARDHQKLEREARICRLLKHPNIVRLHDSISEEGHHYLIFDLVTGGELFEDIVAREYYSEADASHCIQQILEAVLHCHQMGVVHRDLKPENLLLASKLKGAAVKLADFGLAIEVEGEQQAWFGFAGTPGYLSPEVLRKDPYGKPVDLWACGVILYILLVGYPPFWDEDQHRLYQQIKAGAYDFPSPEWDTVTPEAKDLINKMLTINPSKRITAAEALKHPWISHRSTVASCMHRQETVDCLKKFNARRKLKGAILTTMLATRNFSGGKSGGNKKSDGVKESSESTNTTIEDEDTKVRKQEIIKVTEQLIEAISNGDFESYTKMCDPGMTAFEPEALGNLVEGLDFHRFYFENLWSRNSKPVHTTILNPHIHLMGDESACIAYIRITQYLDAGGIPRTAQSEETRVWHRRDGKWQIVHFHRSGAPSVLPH
Read-out: enzyme activity
Mode: inhibitor
Tested at: 10 µM
SMILES	inhibition [%]
N[C@@H](CNC(=O)C(=O)O)C(=O)O	3
CC(=O)O[C@@]12CO[C@@H]1C[C@H](O)[C@@]1(C)C(=O)[C@H](O)C3=C(C)[C@@H](O)C[C@@](O)([C@@H](OC(=O)c4ccccc4)[C@H]21)C3(C)C	32
CO[C@@H]1C[C@H](O[C@H]2CC[C@@]3(C)[C@H](CC[C@@]45O[C@@]46CC[C@H](C4=CC(=O)OC4)[C@@]6(C)CC[C@H]35)C2)O[C@H](C)[C@@H]1O	-146

Study 3
Cell line: mouse MPNST tumor cells
Technique: high-content nuclear imaging
Item: cell number
Tested at: 10 µM
Time: 12 h
Setting: mean of 2 replicates
Baseline: plate mean
Direction: higher = more cells
Compound	nuclei count
CC(N)C(O)c1ccccc1 (stereo not drawn)	0.434 z-score
C=CCC1(CC(C)C)C(=O)NC(=O)NC1=O	0.25 z-score
C=CCN1C[C@H](C(=O)N(CCCN(C)C)C(=O)NCC)C[C@@H]2c3cccc4[nH]cc(c34)C[C@H]21	2.54 z-score
O=C1CSC(c2ccccc2Cl)c2cc(Cl)ccc2N1 (stereo not drawn)	1.82 z-score

Study 4
Compound: COC[C@H]1OC(=O)c2coc3c2[C@@]1(C)C1=C(C3=O)[C@@H]2CCC(=O)[C@@]2(C)C[C@H]1OC(C)=O
Tested at: 0.5 µM
target	assay	conditions	scale	remaining activity [%]
ABL1 (Homo sapiens, UniProt P00519)	kinase activity	added: ATP 10 µM	baseline: untreated	101
ABL2 (Homo sapiens, UniProt P42684)	enzyme activity, inhibitor		baseline: control	94.9
ACVR1B (Homo sapiens, UniProt P36896)	enzyme activity, inhibitor		baseline: control	97.7
LCK (Homo sapiens, UniProt P06239)	enzyme activity, inhibitor		baseline: control	92.7
TEK (Homo sapiens, UniProt Q02763)	enzyme activity, inhibitor		baseline: control	90.9
RPS6KA2 (Homo sapiens, UniProt Q15349)	enzyme activity, inhibitor		baseline: control	94.8
MERTK (Homo sapiens, UniProt Q12866)	enzyme activity, inhibitor		baseline: control	88.7
EPHA3 (Homo sapiens, UniProt P29320)	enzyme activity, inhibitor		baseline: control	98.1
TAOK2 (Homo sapiens, UniProt Q9UL54)	enzyme activity, inhibitor		baseline: control	97.6
MST1R (Homo sapiens, UniProt Q04912)	enzyme activity, inhibitor		baseline: control	92.7
TBK1 (Homo sapiens, UniProt Q9UHD2)	enzyme activity, inhibitor		baseline: control	92.6
MAP2K2 (Homo sapiens, UniProt P36507)	enzyme activity, inhibitor		baseline: control	93.8
MAP3K14 (Homo sapiens, UniProt Q99558)	enzyme activity, inhibitor		baseline: control	106
GRK7 (Homo sapiens, UniProt Q8WTQ7)	enzyme activity, inhibitor		baseline: control	90.4
ULK2 (Homo sapiens, UniProt Q8IYT8)	enzyme activity, inhibitor		baseline: control	101

Single results of other studies
Compound	target or system	assay	system	conditions	scale	measurement	value
C=CC[C@]1(O)CC[C@H]2[C@@H]3CCC4=CC(=O)CCC4=C3C=C[C@@]21C	A-375			100 µM, 18 h		viability	50.1%
CC(=O)N[C@@H](Cc1c[nH]c2ccccc12)C(=O)N[C@@H](CCC(=O)C=[N+]=[N-])C(=O)OC(C)C			C57BL/6 CES1-/- mouse	intravenous, 1 mg/kg		white blood cell count	7.63 and 2.9 and 6.93
C[C@]1(O)CC[C@H]2[C@@H]3CCC4=CC(=O)CC[C@]4(C)[C@@]3(F)[C@@H](O)C[C@@]21C	A-375			100 µM, 18 h		viability	93.7%
C[C@H](c1ccc(F)cc1)N(Cc1cccc(C(=O)O)c1)C(=O)c1cnc2ccccc2c1	CDPK1 (Plasmodium falciparum, UniProt P62344)	cell-free assay, competition with immobilised ligand		1 µM		remaining binding	100%
COc1ccc(N(C(=O)Oc2c(C)cccc2C)c2ccnc(Nc3ccc(N4CCN(C)CC4)cc3)n2)c(OC)c1	HH			2 µM, 48 h	baseline: untreated	viability	79.1%
[N-]=[N+]=CC(=O)CC[C@H](N)C(=O)O			C57BL/6 CES1-/- mouse	intravenous, 1 mg/kg		white blood cell count	1.22 and 0.97 and 0.59

For quick reference, copied from above (study 1):
Molecule	lacZ reporter activity
B3 (RNF135 RING domain)	0
ALDRLEKLLRCSRCTNILREPVCLGGCEHIFCSNCVSDCIGTGCPVCYTPAWIQDLKI (BARD1 RING domain (UniProt Q99728))	0
B4 (TRIM48 RING domain)	0
QLRRLQEERTCKVCLDRAVSIVFVPCGHLVCAECAPGLQLCPICRAPVRSRVRTF (BIRC7 RING domain (UniProt Q96CA5))	0
KEQLEKHNDICAICYQDMKSAVITPCSHFFHAGCLKKWLYVQETCPLCHCHLKNSSQLP (RNF145 RING domain (UniProt Q96MT1))	0
